Experimental data gathered from unrelated publications.
A part holds a random share of what one study measured.
Sequence of UniProt P23458 (whole entry, looked up): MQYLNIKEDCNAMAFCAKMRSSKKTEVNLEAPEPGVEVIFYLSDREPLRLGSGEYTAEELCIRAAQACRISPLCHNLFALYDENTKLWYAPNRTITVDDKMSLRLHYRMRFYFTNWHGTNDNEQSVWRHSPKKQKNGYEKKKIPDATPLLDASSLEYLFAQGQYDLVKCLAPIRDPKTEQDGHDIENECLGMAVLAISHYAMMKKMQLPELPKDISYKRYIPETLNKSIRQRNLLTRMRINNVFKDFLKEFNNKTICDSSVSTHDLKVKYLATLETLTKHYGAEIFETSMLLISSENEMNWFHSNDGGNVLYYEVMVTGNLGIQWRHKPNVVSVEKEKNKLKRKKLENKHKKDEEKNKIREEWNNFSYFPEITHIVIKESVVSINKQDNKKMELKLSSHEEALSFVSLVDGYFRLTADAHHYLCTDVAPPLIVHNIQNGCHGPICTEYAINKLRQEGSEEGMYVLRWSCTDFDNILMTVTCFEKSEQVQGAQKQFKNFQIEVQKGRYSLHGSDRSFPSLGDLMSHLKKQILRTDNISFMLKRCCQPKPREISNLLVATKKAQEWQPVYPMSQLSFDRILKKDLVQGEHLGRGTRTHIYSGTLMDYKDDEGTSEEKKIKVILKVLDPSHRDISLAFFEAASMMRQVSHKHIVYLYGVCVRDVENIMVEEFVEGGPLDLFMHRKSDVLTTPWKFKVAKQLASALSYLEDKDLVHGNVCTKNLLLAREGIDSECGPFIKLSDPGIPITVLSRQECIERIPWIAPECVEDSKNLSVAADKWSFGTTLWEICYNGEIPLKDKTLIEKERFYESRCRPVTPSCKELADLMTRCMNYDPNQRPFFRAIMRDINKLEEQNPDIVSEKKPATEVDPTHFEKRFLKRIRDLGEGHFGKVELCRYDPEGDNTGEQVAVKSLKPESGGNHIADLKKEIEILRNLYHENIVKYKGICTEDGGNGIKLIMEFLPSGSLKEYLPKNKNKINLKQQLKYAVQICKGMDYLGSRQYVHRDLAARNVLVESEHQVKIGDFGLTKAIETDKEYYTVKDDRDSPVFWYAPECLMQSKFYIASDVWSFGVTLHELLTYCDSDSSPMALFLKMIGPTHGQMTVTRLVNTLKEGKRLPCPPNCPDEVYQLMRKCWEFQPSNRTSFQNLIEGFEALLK
Sequence of UniProt Q96SB4 (whole entry, looked up): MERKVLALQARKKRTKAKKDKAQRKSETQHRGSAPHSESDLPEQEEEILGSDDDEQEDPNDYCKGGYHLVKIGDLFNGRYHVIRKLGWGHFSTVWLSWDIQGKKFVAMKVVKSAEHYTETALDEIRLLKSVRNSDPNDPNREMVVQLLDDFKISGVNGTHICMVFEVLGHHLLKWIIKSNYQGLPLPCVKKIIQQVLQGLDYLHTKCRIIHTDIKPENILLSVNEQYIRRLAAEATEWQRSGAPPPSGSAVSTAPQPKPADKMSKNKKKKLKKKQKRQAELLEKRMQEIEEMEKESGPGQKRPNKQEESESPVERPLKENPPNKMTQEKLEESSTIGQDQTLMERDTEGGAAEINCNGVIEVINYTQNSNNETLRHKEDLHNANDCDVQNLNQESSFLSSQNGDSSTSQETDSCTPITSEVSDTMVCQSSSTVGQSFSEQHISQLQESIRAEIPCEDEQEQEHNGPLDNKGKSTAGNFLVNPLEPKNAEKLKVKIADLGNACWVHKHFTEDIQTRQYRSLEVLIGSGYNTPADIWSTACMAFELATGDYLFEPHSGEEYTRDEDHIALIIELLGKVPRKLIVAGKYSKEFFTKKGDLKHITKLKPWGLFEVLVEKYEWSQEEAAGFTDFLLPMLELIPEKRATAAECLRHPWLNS

Set 1 — organism: Sarcocystis neurona; read-out: parasite growth; tested at: 10 µM; time: 96 h; setting: first screen; relative to: untreated
Under “log2 fold change”, CNCC(O)c1ccc(O)cc1 (centres unmarked) is recorded as 0.19.
For CN1C(=O)CN=C(c2ccccc2)c2cc([N+](=O)[O-])ccc21, “log2 fold change” read -0.03.
CNC1CC(c2ccc(Cl)c(Cl)c2)c2ccccc21 (centres unmarked): “log2 fold change” -0.54.
For C[C@]12C/C(=C/O)C(=O)C[C@@H]1CC[C@@H]1[C@@H]2CC[C@@]2(C)[C@H]1CC[C@]2(C)O, “log2 fold change” read -0.16.
For NC(=O)C[S+]([O-])C(c1ccccc1)c1ccccc1 (centres unmarked), “log2 fold change” read 0.2.
Cc1nnc2n1-c1ccc(Cl)cc1C(c1ccccc1)=NC2: “log2 fold change” -0.0645.
COc1ccc(C(CN(C)C)C2(O)CCCCC2)cc1 (centres unmarked): “log2 fold change” -0.18.

Set 2 — cell line: mouse MPNST tumor cells; method: high-content nuclear imaging; refers to: cell number; tested at: 10 µM; time: 12 h; setting: mean of 2 replicates; relative to: plate mean; reading: higher = more cells
For COc1ccc(CN2CCNCC2)c(OC)c1OC, the nuclei count was 0.82 z-score.
With O=C(Oc1ccc([N+](=O)[O-])cc1)N1CCC(C(O)(c2ccc3c(c2)OCO3)c2ccc3c(c2)OCO3)CC1 the nuclei count was 1.26 z-score.
O=C(NCCN1CCC2(CC1)C(=O)NCN2c1cccc(F)c1)c1ccc2ccccc2c1 gave a nuclei count of -6.02 z-score.
C[C@@H]1CN([C@H]2CC[C@](C#N)(c3ccc(F)cc3)CC2)CC[C@]1(C(=O)O)c1ccccc1 has a nuclei count of 0.193 z-score.
With O=C(Oc1ccc([N+](=O)[O-])cc1)N1CCN(Cc2cccc(Oc3ccccc3)c2)CC1 the nuclei count was 1.1 z-score.

Set 3 — SMILES: COc1ccc2c(c1)/C(=C/c1cnc[nH]1)C(=O)N2; read-out: enzyme activity; mode: inhibitor; tested at: 0.5 µM; relative to: control
It gave 99.2% for remaining activity (TYRO3 (Homo sapiens, UniProt Q06418)).
CLK2 (Homo sapiens, UniProt P49760) — remaining activity: 80.6%.
It gave 73.9% for remaining activity (FLT1 (Homo sapiens, UniProt P17948)).
CLK1 (Homo sapiens, UniProt P49759) — remaining activity: 87.3%.
The remaining activity was 83.8% (JAK1 (Homo sapiens, UniProt P23458)).
The remaining activity was 98% (SRPK1 (Homo sapiens, UniProt Q96SB4)).
It gave 91.3% for remaining activity (CAMKK1 (Homo sapiens, UniProt Q8N5S9)).
The remaining activity was 80% (CSNK1E (Homo sapiens, UniProt P49674)).
For IGF1R (Homo sapiens, UniProt P08069): remaining activity read 94.4%.
It gave 78.3% for remaining activity (MUSK (Homo sapiens, UniProt O15146)).
It gave 91.4% for remaining activity (MAP3K20 (Homo sapiens, UniProt Q9NYL2)).
The remaining activity was 93.6% (CSNK1D (Homo sapiens, UniProt P48730)).
The remaining activity was 103% (CAMK1 (Homo sapiens, UniProt Q14012)).
TEC (Homo sapiens, UniProt P42680) — remaining activity: 91.6%.
The remaining activity was 97.8% (PAK1 (Homo sapiens, UniProt Q13153)).
For EPHA6 (Homo sapiens, UniProt Q9UF33): remaining activity read 91.3%.
It gave 71.4% for remaining activity (SGK2 (Homo sapiens, UniProt Q9HBY8)).
It gave 107% for remaining activity (PRKCZ (Homo sapiens, UniProt Q05513)).
The remaining activity was 98.4% (EPHA2 (Homo sapiens, UniProt P29317)).
The remaining activity was 101% (PAK6 (Homo sapiens, UniProt Q9NQU5)).
The remaining activity was 100% (SIK2 (Homo sapiens, UniProt Q9H0K1)).
It gave 109% for remaining activity (PRKCQ (Homo sapiens, UniProt Q04759)).

Set 4 — mode: antagonist
Target: Beta-1 adrenergic receptor (ADRB1, Homo sapiens, UniProt P08588)
Sequence of UniProt P08588 (whole entry, looked up): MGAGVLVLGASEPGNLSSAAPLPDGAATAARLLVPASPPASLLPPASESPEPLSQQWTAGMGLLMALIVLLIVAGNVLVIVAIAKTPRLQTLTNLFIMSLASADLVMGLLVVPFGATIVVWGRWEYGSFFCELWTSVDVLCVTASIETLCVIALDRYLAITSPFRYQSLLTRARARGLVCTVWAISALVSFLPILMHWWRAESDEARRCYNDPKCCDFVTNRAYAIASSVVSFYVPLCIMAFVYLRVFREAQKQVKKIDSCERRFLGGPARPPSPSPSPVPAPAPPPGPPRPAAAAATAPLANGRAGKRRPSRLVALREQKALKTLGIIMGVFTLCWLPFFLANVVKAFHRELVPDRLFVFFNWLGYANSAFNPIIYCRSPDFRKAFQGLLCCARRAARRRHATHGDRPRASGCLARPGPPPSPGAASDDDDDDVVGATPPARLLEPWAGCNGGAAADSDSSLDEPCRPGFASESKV
With CCCN(CCC)C1CCc2c(ccc(O)c2O)C1 (centres unmarked) the IC50 was no less than 100 µM.
COc1ccccc1N1CCN(Cc2ccc(C#N)cc2)CC1 has an IC50 of no less than 100 µM.
With CN[C@@H](C)[C@H](O)c1ccccc1 the IC50 was no less than 100 µM.

Set 5 — read-out: enzyme activity; mode: inhibitor; tested at: 77 µM; relative to: untreated
Target: DNA polymerase theta, ATPase domain (POLQ, Homo sapiens, UniProt O75417)
Sequence of UniProt O75417 (whole entry, unmodified, looked up): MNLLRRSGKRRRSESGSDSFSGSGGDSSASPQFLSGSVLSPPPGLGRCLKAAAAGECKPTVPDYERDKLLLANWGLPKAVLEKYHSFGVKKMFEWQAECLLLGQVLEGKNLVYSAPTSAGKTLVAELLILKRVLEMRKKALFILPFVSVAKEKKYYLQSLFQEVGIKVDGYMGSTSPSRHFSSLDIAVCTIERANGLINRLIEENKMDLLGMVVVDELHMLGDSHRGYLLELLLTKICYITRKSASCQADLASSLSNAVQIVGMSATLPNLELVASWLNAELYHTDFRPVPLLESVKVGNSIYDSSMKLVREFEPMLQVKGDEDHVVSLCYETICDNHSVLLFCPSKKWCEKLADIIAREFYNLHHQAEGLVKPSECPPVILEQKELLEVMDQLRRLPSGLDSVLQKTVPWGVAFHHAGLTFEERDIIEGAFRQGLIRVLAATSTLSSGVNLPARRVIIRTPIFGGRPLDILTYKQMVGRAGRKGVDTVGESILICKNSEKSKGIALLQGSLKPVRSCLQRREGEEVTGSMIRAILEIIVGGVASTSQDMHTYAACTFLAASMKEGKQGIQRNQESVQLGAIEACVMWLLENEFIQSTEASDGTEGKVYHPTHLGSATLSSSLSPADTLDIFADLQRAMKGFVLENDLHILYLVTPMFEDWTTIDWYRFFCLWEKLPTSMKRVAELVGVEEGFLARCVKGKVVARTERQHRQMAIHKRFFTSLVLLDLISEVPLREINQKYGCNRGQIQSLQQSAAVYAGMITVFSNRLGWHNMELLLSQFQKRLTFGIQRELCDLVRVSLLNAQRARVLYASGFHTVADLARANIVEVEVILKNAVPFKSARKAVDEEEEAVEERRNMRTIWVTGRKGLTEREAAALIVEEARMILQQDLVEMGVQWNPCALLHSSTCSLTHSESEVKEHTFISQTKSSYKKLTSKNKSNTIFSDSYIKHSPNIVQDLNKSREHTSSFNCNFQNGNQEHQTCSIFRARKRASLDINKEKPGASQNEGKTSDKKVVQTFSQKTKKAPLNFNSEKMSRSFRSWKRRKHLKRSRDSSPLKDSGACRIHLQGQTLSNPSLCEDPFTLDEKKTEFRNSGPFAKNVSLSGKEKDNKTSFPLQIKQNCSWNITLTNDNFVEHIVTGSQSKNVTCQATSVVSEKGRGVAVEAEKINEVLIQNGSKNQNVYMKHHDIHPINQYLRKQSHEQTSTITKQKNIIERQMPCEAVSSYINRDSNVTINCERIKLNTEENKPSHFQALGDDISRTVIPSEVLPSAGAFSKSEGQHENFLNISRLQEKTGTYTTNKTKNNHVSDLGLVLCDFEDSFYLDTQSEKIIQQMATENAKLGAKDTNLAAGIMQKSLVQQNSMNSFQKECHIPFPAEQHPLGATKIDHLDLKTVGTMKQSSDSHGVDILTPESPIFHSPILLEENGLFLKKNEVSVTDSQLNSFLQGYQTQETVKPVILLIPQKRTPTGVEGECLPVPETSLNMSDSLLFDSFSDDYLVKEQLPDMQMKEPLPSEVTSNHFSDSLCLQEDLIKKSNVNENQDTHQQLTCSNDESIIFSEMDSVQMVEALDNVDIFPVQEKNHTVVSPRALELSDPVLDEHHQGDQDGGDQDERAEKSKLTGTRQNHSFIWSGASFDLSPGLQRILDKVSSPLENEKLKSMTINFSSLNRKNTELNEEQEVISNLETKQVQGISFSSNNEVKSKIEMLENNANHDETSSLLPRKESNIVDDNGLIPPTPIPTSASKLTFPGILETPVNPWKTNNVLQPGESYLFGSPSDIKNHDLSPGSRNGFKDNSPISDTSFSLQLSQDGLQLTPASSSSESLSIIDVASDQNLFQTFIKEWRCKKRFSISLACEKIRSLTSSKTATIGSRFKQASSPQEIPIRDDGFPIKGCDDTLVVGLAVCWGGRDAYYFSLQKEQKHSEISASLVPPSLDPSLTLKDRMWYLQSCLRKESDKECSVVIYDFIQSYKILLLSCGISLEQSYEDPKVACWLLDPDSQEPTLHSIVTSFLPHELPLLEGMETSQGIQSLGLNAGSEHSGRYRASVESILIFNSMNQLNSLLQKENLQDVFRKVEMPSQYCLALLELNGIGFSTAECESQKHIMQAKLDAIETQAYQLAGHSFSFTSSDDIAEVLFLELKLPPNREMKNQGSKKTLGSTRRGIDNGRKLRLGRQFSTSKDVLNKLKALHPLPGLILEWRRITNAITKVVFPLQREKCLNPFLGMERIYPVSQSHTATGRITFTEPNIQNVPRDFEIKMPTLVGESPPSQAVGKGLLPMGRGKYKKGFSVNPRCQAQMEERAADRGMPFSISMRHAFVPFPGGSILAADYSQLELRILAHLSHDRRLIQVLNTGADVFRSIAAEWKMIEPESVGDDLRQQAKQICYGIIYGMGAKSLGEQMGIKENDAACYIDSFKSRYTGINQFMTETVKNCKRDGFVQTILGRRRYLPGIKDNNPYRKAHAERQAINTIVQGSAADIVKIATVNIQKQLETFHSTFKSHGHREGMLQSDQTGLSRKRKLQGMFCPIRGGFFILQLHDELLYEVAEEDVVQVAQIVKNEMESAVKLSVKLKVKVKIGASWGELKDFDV
C[C@@H]1O[C@@H](O[C@@H]2C=C3CC[C@@H]4[C@H](CC[C@]5(C)[C@@H](c6ccc(=O)oc6)CC[C@]45O)[C@@]3(C)CC2)[C@H](O)[C@H](O)[C@H]1O gave a remaining activity of 104%.
The remaining activity of CN1CCc2cccc(Cl)c2CC1 is reported as 110%.
CCCCc1ccc(C(=O)O)nc1 gave a remaining activity of 99.8%.

Mixed results
For O=C(NC[C@@H]1[C@H]2CN(C(=O)OCc3cc(C(F)(F)F)cc(C(F)(F)F)c3)C[C@@H]12)c1ccc2[nH]nnc2c1, the inhibition was 51.4% (HTR2A (Homo sapiens, UniProt P28223); cell-free assay; 10 µM).
For COc1ccc2cc(OCC3(C(=O)O)CN(C(=O)c4ccc(F)cc4)C3)ccc2c1, the remaining binding was 100% (CDPK1 (Plasmodium falciparum, UniProt P62344); cell-free assay, competition with immobilised ligand; 1 µM).
For CNC(=O)c1cc(C(=O)NC2CC2)cn(Cc2ccccc2)c1=O, the inhibition was -9.14% (HRH2 (Homo sapiens, UniProt P25021); binding, radioligand binding; 10 µM).
O=C(Nc1cnc(Oc2ccc(F)cc2)nc1)N1CCc2ncccc2[C@@H]1c1ccc(F)cc1 has a remaining binding of 90% (pknB (Mycobacterium tuberculosis, UniProt P9WI81); cell-free assay, competition with immobilised ligand; 1 µM).
